Results from different studies.
Compare with care: the assays were run in different laboratories. Numbers after ± are the reported error.
UniProt P21447, sequence (whole entry, looked up): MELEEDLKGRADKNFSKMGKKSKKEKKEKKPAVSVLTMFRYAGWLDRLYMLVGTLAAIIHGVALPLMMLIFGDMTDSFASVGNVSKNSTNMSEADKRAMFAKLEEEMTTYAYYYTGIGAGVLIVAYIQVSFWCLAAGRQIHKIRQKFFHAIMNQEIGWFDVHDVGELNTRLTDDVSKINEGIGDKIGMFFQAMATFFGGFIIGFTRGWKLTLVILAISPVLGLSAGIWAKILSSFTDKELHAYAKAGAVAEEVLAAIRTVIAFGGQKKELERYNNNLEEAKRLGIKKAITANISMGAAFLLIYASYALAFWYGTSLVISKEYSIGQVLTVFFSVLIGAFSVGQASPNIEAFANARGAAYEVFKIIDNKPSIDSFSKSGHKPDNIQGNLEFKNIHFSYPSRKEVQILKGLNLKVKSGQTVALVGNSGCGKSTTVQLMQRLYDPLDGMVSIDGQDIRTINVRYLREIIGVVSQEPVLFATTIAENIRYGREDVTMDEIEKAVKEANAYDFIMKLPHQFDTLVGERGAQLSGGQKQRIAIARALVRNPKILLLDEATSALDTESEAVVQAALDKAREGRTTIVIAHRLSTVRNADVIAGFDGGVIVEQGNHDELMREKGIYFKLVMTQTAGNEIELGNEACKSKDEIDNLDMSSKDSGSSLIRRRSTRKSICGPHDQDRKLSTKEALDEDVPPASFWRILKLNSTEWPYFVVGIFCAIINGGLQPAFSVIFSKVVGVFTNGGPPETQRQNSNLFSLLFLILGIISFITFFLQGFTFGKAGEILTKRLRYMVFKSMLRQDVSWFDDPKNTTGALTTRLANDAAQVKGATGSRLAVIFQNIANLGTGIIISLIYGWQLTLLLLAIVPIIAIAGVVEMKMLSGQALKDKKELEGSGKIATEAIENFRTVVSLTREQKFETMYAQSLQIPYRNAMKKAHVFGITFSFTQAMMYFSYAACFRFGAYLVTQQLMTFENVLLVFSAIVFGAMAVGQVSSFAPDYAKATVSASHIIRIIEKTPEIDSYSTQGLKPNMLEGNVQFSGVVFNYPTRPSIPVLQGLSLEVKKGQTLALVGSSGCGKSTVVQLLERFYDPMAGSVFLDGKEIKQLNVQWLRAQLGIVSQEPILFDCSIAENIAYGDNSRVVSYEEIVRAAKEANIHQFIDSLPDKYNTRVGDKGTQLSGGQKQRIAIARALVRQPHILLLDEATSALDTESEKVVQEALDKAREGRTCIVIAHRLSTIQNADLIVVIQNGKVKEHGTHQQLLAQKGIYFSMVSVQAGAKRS
UniProt P05177, sequence (whole entry, looked up): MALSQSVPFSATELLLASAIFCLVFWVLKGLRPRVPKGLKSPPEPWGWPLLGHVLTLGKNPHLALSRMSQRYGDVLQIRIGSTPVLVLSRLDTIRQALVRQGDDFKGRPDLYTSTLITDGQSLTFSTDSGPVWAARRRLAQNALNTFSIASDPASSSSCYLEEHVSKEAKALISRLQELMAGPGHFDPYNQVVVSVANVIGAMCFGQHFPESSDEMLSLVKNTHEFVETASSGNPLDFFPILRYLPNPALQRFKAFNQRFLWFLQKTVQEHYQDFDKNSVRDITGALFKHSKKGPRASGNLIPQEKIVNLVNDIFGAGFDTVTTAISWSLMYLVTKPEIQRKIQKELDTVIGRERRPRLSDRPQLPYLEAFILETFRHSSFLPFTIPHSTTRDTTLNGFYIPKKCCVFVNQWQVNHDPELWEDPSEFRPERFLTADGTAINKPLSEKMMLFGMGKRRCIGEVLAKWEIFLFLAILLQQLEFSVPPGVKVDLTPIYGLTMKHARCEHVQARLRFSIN

SMILES = CC1(C)CCC23COC4(C=CC5C6(C)CCC(O)C(C)(CO)C6CCC5(C)C4(C)CC2O)C3C1 (stereo not drawn); target or system = Caco-2 monolayer; conditions = 10 µM, 3 h, 37 °C, apical to basolateral; quantity = recovery; value = 85.4%
SMILES = COc1cccc2c1C(=O)c1c(O)c3c(c(O)c1C2=O)CC(O)(C(=O)CO)CC3OC1CC(NC(=O)C[C@H](N)C(=O)O)C(O)C(C)O1 (stereo partly drawn); target or system = HepG2 (LAT1-positive); assay = HPLC; conditions = 10 µg/mL, 2 h, serum-free medium; quantity = cellular uptake; value = 0.48 ± 0.019 µg/mL
SMILES = CCC(=O)N(C)c1ccc(Cl)c(Cl)c1; target or system = CHO-WBL; conditions = 0.032 mg/mL, 3 h, with S9 activation; quantity = cells with one aberration; value = 0%
SMILES = CCCCCc1ccc2c(c1O)C(c1ccc(OC)c(OC)c1)OC2=O (stereo not drawn); target or system = Naegleria fowleri trophozoites; assay = AlamarBlue; system = ATCC 30215; conditions = 48 h, 37 °C; scale = reference: J774A.1 CC50 over IC50 ATCC 30215; quantity = selectivity index; value = ≥ 43.2
SMILES = [64Cu+2].c1ccc(CNCc2ccc(CN3CCCN4CCNCCCN(CC4)CC3)cc2)nc1; target or system = CXCR4; system = NOD/SCID mouse, U87 and U87-stb-CXCR4 xenografts, muscle; conditions = iv, 240 min, ex vivo; quantity = tissue uptake; value = 0.34 ± 0.02 %ID/g
SMILES = [11CH3]N1CCCC[C@H]1[C@@H](NC(=O)c1nccc(C(F)(F)F)c1Cl)c1cccc(-c2cn[nH]c2)c1; target or system = Abcb1a (Mus musculus, UniProt P21447); system = mouse; conditions = added: cyclosporin A 50 mg/kg iv; scale = reference: cyclosporin A over control; quantity = brain uptake ratio; value = 4
SMILES = CC(=O)OC(CF)Cn1c([N+](=O)[O-])cnc1C (stereo not drawn); target or system = Salmonella enterica serovar Typhimurium; assay = Ames test, Bernstein slope; system = TA97; quantity = mutagenic potency; value = 0.3 ± 0.22 revertants/µg
SMILES = CC(=O)N[C@H](C(=O)N[C@H](C(=O)N[C@@H](CCCNC(=N)N)C(=O)N1Cc2ccccc2C[C@H]1C(=O)N[C@@H](Cc1ccccc1)C(N)=O)C1CCCCC1)C(C)C; target or system = human PBMC; assay = Bio-Plex multiplex, measured: VEGF; conditions = 250 µg/mL, 24 h; quantity = cytokine level; value = 111 ± 61.7 pg/mL
SMILES = COc1ccc(C2OC(=O)c3ccc(-c4ccccc4)c(O)c32)c(OC)c1OC (stereo not drawn); target or system = Naegleria fowleri trophozoites; assay = AlamarBlue; system = ATCC 30808; conditions = 48 h, 37 °C; scale = reference: J774A.1 CC50 over IC50 ATCC 30808; quantity = selectivity index; value = ≥ 29.3
SMILES = [64Cu+2].c1cnc(CNCc2ccc(CN3CCCN4CCNCCCN(CC4)CC3)cc2)nc1; target or system = CXCR4; system = NOD/SCID mouse, U87 and U87-stb-CXCR4 xenografts, lungs; conditions = iv, 90 min, ex vivo; quantity = tissue uptake; value = 7.6 ± 1.11 %ID/g
SMILES = N=C(N)NCCC[C@@H]1NC(=O)[C@H](Cc2c[nH]c3ccccc23)NC(=O)[C@@H](CC2CCCCC2)NC(=O)[C@@H]2CCCN2C(=O)[C@@H](NC(=O)CCc2ccccc2)CCCNC1=O; system = C57BL/6J mice, plasma; conditions = subcutaneous, 1 mg/kg, two-compartment model; quantity = elimination rate constant; value = 0.000578 s⁻¹
SMILES = CC(=O)OC(CF)Cn1cnc([N+](=O)[O-])c1 (stereo not drawn); target or system = Salmonella enterica serovar Typhimurium; assay = Ames test, Bernstein slope; system = TA102; quantity = mutagenic potency; value = 2.51 ± 0.44 revertants/µg
SMILES = COc1ccc(C2OC(=O)c3ccc(C)c(O)c32)c(OC)c1OC (stereo not drawn); target or system = Naegleria fowleri trophozoites; assay = AlamarBlue; system = ATCC 30808; conditions = 48 h, 37 °C; scale = reference: J774A.1 CC50 over IC50 ATCC 30808; quantity = selectivity index; value = ≥ 1.52
SMILES = C=CC(=O)Nc1cc(Nc2nccc(-c3cn(C)c4ccccc34)n2)c(OCC(F)(F)F)nc1N(C)CCN(C)C; target or system = Cytochrome P450 1A2 (CYP1A2, Homo sapiens, UniProt P05177); assay = enzyme activity, inhibitor; system = human, liver microsomes; conditions = 3.33 µM; quantity = activity vs control; value = 75.3%
SMILES = COc1ccc(-n2c(=O)c(C(=O)C3C(=O)CCCC3=O)nc3ccccc32)cc1; target or system = Oryza sativa var. Kinmaze; assay = crop injury; conditions = paddy water application, 28 days, transplanted at two-leaf stage; quantity = ED20; value = 6.3 g a.i./10 a

Some of these lines once more:
SMILES = CCCCCc1ccc2c(c1O)C(c1ccc(OC)c(OC)c1)OC2=O (stereo not drawn); target or system = Naegleria fowleri trophozoites; assay = AlamarBlue; system = ATCC 30215; conditions = 48 h, 37 °C; scale = reference: J774A.1 CC50 over IC50 ATCC 30215; quantity = selectivity index; value = ≥ 43.2
